Published values gathered from unrelated publications.
Every numbered part comes from another study and shows a few of its results, in no order. Changes are numbered by the printed parent chain.

Set 1 — target: CCND1, cyclin fold, Cln2 fusion (human); method: yeast growth competition, sequencing; medium: yeast; setting: weak parent motif; baseline: not given; reading: higher = stronger binding
Starting sequence: SAMHD1 docking peptide (human); ASKSRVQLFKDDP
Variant | normalised enrichment score
ASKSRGQLFKDDP [V6G] | 0.235
ASKYRVQLFKDDP [S4Y] | 0.381
ASVSRVQLFKDDP [K3V] | 0.318

Set 2 — method: RNA Bind-n-Seq; molecule type: RNA; medium: in vitro; concentration: 365 nM; baseline: no-protein control; reading: higher = stronger binding
Target: RNA binding protein fox-1 homolog 2, RRM domain, GST-SBP tag (RBFOX2, Homo sapiens, UniProt O43251-10, residues 100-194)
Setting: natural RNA segment, single round, ends assumed
Target sequence (chain): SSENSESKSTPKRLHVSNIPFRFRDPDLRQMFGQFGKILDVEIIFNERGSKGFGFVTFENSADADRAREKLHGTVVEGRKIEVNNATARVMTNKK
Strand | RBNS enrichment (R)
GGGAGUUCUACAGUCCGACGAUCGUUUAAUCUUUUUUAAUGAAAAAAAAUCAUGUUUAAAAUGGCAAAAGCCCAUCUUAUACACUUUUAUAUAGCUGCAAAAAAUUUAUAUCUGUACAGAUCUAACACUACGAUGGAAUUCUCGGGUGCCAA | 0.399
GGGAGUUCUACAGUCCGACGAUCUCCUAGAACUUUAUUUGUAGACCAGGUUGGCCUGGAAUUUACAGAGAUCUGCCUACCUCUCUGCCUAUGCCUAAGCCUAAGCCUAAGCCUAAGCCUAAGCCUAUGCCUAUUGGAAUUCUCGGGUGCCAA | 0.334
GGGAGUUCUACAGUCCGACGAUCUUGGGAAAGGAAAGCCCAGAUUUGAAUGGGUCUUUCCCCUGGGCCUUAUCCUAUAGAGGCAUUUGUAAUAUGGAGAAAAUAAUUUUUCAUUUUUGCUCAUUUAAUUCUAUUGGAAUUCUCGGGUGCCAA | 0.35
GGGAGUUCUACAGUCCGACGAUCCCAGUGUUAUCGUGUUUUAUAGCUGCCUUUCUGUGUCUUACACAGUUUGAGAGUAUAUGUUAAUGACUAUUUUUUUUAAAAAUGUUCUAUUGAAACCAGUGUAACAGCACUGGAAUUCUCGGGUGCCAA | 0.465
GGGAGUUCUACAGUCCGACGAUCAUGAGUCCCAUCUGUAAAUUCUUUGCUCCCUUCUCCGAUGCUGCCACCCAAGGCCUUCUCCUGCCUCCUGUCCACUGCCAGCGUCCUCAUUUGUCAUCGGUCAUUAGCCUUGGAAUUCUCGGGUGCCAA | 0.635

Set 3 — method: RNA Bind-n-Seq; molecule type: RNA; medium: in vitro; concentration: 200 nM; setting: whole 134-nt RNA, ends assumed; together with: 150 mM KCl; baseline: input library; reading: higher = stronger binding
Target: Ras GTPase-activating protein-binding protein 1, full length (G3BP1, Homo sapiens, UniProt Q13283)
UniProt Q13283, sequence (whole entry, looked up): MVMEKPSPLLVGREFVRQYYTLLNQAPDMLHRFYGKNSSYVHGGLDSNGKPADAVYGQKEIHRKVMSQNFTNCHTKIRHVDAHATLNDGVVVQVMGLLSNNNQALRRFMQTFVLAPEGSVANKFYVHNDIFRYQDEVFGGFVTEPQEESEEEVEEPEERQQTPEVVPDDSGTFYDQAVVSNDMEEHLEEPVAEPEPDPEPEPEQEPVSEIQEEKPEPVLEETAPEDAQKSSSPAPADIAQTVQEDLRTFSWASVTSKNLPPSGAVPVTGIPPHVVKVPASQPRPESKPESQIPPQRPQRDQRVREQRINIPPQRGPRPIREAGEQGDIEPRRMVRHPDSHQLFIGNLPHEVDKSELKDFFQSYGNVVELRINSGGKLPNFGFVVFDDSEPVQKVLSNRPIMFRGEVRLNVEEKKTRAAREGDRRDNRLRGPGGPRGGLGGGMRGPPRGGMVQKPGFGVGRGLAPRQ
Strand | log2 enrichment
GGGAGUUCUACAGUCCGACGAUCCACAGACAACACGCACCCACACAUACACAGAGGGAAGGGGUUGGGAUGGGGACAGGGUGCACAGCAGGGCGGGGUAGGACCCCAGCCCCUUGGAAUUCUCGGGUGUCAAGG | 1.74
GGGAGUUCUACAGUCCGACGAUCAAGUCCUGUGCUACACAUCGUAUGUACCGAAUCAAACCCAAACCCCCAAAUUUAAAAAAGUAUUAUGUUACGCCGUUCGGAUCUGCACUUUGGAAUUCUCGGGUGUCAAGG | -0.468
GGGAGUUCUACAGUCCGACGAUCUCCUUUGUGUUUACAAAAGCACUGACCCUUUACCUUUUCUUUAGCAAGAAGAAUGGAAUGAACAUAAUGCCAAAAUAAUUAAAUAUAUAAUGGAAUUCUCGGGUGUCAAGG | 0.703
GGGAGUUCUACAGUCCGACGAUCUAACUUUAGAGGAGGAUCUGAUGGAUAUGGCAGUGGACGUGGAUUUGGGGAUGGCUAUAAUGGGUAUGGAGGAGGACCUGGAGGUGUCAAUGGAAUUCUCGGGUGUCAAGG | 0.0161
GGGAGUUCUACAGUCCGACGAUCUAACUUUAGAGGAGGAUCUGAUGGAUAUGGCAGUGGACGUGGAUUUGGGGAUGGCUAUAAUGGGUAUGCAGGAGGACCUGGAGGUGGCAAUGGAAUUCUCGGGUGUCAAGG | 0.18
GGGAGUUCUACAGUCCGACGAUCAAGUCCUGUGCUACACAUCGUAUGUACCGAAUCGGGGUUUUUGGGGUGGGGUGGGGAAAGUAUUAUGUUACGCCGUUCGGAUCUGCACUUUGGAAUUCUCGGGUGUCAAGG | 0.86

Mixed results
Molecule | target | test | test system | setting | scale | endpoint | result
PhoQ, residues 284 288 289 292 302 303 AAQSYM | PhoP, residues 12 14 15 18 19 TPWLV (Escherichia coli, UniProt P23836) | Sort-seq, item: YFP reporter | E. coli | PhoQ-PhoP variant library, together with: 10 µM Mg2+ | baseline: high Mg2+ state, higher = stronger signaling | fold induction | 1.07

For quick reference, copied from above (set 2):
Strand | RBNS enrichment (R)
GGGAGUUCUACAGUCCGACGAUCUCCUAGAACUUUAUUUGUAGACCAGGUUGGCCUGGAAUUUACAGAGAUCUGCCUACCUCUCUGCCUAUGCCUAAGCCUAAGCCUAAGCCUAAGCCUAAGCCUAUGCCUAUUGGAAUUCUCGGGUGCCAA | 0.334
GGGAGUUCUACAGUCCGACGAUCUUGGGAAAGGAAAGCCCAGAUUUGAAUGGGUCUUUCCCCUGGGCCUUAUCCUAUAGAGGCAUUUGUAAUAUGGAGAAAAUAAUUUUUCAUUUUUGCUCAUUUAAUUCUAUUGGAAUUCUCGGGUGCCAA | 0.35
